Published values of several laboratories.
Compare with care: the assays were run in different laboratories.
TMPRSS2: Transmembrane protease serine 2 (TMPRSS2, Homo sapiens, UniProt O15393)
Sequence of UniProt O15393 (whole entry, looked up): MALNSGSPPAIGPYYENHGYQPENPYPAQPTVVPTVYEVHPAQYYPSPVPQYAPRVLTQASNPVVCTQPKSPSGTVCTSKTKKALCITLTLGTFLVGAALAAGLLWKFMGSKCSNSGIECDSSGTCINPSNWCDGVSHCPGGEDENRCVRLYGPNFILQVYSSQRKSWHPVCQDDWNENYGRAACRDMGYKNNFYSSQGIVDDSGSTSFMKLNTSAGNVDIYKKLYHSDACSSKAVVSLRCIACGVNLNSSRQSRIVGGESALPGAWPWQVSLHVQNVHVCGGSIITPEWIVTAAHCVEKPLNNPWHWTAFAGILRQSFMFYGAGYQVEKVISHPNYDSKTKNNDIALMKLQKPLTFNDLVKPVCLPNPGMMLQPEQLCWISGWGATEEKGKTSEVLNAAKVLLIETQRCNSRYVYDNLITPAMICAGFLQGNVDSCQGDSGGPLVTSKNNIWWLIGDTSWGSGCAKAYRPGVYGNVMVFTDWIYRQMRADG
PFF0160c: Dihydroorotate dehydrogenase (quinone), mitochondrial (PFF0160c, Plasmodium falciparum, UniProt Q08210)
Sequence of UniProt Q08210 (whole entry, looked up): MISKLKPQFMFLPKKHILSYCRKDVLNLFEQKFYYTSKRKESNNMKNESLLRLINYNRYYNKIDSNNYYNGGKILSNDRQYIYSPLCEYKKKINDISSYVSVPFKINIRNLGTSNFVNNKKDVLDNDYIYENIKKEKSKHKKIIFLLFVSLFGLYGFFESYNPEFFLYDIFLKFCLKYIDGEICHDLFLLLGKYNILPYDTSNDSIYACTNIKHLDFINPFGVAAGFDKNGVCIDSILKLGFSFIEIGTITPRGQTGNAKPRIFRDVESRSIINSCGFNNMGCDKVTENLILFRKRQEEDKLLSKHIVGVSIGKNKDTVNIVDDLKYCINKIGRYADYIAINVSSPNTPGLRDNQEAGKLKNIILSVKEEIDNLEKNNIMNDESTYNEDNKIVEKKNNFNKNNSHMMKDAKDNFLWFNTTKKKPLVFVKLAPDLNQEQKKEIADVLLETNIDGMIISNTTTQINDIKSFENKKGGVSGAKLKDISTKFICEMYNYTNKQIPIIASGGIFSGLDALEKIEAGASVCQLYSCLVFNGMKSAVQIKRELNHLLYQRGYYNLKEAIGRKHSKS
CTSL: Procathepsin L (CTSL, Homo sapiens, UniProt P07711)
Sequence of UniProt P07711 (whole entry, looked up): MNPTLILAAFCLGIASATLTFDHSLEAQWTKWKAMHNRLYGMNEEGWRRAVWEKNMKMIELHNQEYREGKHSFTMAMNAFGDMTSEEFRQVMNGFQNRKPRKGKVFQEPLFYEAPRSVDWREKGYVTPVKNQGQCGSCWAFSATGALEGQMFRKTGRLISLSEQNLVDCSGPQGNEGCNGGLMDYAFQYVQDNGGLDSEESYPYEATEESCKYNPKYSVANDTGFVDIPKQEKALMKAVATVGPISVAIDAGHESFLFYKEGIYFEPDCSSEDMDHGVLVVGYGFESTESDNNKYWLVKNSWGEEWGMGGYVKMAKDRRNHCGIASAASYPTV
Sequence of UniProt P25025 (whole entry, looked up): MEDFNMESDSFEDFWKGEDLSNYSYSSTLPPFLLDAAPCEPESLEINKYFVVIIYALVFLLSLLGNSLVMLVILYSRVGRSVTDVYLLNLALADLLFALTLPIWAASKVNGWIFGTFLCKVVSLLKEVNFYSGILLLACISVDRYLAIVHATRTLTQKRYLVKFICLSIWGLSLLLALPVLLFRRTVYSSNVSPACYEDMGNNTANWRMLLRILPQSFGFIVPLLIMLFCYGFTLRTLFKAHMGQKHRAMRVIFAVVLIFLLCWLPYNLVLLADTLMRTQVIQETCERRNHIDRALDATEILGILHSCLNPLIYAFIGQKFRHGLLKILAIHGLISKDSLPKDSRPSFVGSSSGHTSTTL
Sequence of UniProt P21554 (whole entry, looked up): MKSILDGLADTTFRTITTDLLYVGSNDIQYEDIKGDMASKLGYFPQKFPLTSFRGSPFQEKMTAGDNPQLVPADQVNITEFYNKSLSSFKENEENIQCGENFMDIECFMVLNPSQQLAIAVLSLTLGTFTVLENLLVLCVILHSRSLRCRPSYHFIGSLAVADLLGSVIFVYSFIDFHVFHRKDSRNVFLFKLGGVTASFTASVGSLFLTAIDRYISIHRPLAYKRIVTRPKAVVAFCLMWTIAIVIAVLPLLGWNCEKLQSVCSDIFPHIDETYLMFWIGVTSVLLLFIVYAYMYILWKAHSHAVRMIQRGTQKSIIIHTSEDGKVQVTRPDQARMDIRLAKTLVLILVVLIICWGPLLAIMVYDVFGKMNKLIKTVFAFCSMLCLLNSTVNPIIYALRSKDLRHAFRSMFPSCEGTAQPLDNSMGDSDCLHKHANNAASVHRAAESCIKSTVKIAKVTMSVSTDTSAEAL
Sequence of UniProt P41144 (whole entry, looked up): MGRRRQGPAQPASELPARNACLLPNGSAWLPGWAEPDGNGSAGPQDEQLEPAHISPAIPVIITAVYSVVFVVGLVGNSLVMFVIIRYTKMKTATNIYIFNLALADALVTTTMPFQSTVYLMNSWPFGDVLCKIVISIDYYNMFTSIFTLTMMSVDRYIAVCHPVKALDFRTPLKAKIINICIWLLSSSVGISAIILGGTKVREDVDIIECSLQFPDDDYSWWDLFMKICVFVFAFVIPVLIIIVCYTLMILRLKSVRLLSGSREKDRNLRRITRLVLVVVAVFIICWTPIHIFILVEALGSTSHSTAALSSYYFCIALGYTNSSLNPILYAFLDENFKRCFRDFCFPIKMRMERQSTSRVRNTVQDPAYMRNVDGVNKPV
Sequence of UniProt P29322 (whole entry, looked up): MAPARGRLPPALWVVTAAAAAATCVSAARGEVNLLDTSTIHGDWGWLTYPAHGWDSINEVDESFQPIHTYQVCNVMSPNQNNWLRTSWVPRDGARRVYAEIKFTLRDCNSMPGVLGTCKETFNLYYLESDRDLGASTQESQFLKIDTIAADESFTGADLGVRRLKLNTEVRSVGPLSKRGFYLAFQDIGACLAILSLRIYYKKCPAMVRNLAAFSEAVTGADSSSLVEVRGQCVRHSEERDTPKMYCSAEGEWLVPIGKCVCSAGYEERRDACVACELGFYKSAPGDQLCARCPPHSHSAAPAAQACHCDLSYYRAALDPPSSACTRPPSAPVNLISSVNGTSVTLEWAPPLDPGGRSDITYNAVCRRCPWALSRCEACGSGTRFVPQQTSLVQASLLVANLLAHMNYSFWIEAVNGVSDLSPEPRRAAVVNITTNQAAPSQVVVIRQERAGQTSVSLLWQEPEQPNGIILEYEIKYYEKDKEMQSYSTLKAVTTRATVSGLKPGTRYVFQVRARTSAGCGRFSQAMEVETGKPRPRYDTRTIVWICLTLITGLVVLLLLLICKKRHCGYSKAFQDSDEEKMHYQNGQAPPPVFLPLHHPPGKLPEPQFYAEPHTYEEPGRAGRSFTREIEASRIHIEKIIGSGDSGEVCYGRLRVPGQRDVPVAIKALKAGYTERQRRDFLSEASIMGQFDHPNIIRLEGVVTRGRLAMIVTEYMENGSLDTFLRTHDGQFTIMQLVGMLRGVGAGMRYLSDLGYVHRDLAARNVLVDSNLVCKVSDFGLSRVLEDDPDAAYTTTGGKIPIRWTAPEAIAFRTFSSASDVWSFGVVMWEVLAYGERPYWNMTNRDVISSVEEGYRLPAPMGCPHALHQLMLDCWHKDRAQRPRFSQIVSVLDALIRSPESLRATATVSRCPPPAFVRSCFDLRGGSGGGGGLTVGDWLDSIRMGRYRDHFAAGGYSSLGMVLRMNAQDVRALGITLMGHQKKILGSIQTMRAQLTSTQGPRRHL
Sequence of UniProt Q9Y5N1 (whole entry, looked up): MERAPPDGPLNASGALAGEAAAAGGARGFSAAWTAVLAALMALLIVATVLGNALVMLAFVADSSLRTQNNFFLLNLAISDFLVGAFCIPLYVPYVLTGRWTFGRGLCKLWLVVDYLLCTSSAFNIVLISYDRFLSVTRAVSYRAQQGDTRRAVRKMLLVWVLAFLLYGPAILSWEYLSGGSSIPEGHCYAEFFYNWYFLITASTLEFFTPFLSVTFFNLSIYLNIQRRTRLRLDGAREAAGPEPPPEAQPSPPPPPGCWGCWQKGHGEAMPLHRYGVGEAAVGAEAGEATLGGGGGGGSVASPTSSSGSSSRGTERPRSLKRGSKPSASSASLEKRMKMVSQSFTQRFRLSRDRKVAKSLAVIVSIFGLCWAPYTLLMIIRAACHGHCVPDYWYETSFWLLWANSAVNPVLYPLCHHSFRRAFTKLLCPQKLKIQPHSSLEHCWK
Sequence of UniProt P22303 (whole entry, looked up): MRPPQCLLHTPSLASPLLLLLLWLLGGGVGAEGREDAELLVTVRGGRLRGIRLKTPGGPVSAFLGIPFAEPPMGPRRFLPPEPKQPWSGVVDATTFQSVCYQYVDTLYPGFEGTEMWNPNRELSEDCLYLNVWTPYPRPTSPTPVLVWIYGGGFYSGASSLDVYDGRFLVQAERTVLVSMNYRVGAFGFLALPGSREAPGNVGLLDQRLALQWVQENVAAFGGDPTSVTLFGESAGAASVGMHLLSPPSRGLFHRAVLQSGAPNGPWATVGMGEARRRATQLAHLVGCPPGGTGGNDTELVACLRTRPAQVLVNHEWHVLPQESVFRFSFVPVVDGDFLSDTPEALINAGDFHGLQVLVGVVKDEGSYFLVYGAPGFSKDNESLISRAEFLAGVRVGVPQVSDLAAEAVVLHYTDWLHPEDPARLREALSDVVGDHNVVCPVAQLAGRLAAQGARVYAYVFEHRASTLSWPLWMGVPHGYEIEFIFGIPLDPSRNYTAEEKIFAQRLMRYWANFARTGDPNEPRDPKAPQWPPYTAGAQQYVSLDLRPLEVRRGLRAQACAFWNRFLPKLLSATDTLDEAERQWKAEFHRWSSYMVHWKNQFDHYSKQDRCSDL

CC(C)CC(=O)OC[C@H]1O[C@@](C#N)(c2ccc3c(N)ncnn23)[C@H](O)[C@@H]1O — inhibition (CXCR2 (Homo sapiens, UniProt P25025); cell-free assay; 20 µM): -2%
c1cncc([C@@H]2CCCN2)c1 — inhibition (HRH3 (Homo sapiens, UniProt Q9Y5N1); ligand displacement; 50 µM): 14%
C#Cc1n[nH]c2c(-c3cn(C(C)c4ccccn4)c(=O)[nH]c3=O)cc(F)cc12 (centres unmarked) — inhibition (MST1R (Homo sapiens, UniProt Q04912); enzyme activity, inhibitor; 1 µM): 66.6%
N.N.[Cl][Pt][Cl] — IC50 (CA46; cell growth or viability, ATP luminescence; 72 h): 1530 nM
COC(=O)c1cc(-c2cccc(NC(=O)Nc3ccc(F)c(F)c3)c2)on1 — MIC (Mycolicibacterium fortuitum; microbial growth, broth dilution; ATCC6841; 48 h): > 64 µg/mL
CN1CCC[C@H]1c1cccnc1 — inhibition (HTR1D (Homo sapiens, UniProt P28221); cell-free assay; 50 µM): -18.1%
Cc1nn(C)cc1-c1nc2c(N3CCN(Cc4ccc(Cl)cc4)CC3)c(Cl)cnc2[nH]1 — remaining binding (MET (Homo sapiens, UniProt P08581, M1250T); binding, competition with immobilised ligand; 1 µM): 93%
C=CCCCn1c(O)c(N=NC(=O)c2ccccc2)c2ccccc21 — Emax (CNR1 (Homo sapiens, UniProt P21554); β-arrestin recruitment, agonist; HEK293): 77.4%
CCN(CC)CCCC[C@H](NC(=O)[C@H](CC(C)C)NC(=O)[C@H](C)NC(=O)[C@H](Cc1ccccc1)NC(=O)c1ccc(C(C)(C)C)cc1)C(=O)N[C@@H](CO)C(=O)OC — ΔTm (Bromodomain and WD repeat-containing protein 1, BD2 (BRWD1, Homo sapiens, UniProt Q9NSI6); thermal stability, DSF; 25 µM): 0.95 °C
N=C(N)NCCC[C@H](NC(=O)[C@H](Cc1ccccc1)NC(=O)[C@H](CCC(N)=O)NC(=O)OCc1ccccc1)C(=O)c1nccs1 — activity vs control (TMPRSS2; enzyme activity, inhibitor; 1 nM): 89%
CN1C(=O)/C(=N\Nc2ncc(-c3cc4ccccc4oc3=O)s2)c2cc(Cl)ccc21 — inhibition (ACHE (Homo sapiens, UniProt P22303); enzyme activity, inhibitor, Ellman; 5 µM): 95.5%
Nc1ccncc1 — inhibition (KCNA1 (Homo sapiens, UniProt Q09470); ion current, inhibitor, patch clamp; 3 µM): 510%
CCc1nc2nc(C)cc(Nc3ccc(F)c(Cl)c3)n2n1 — IC50 (PFF0160c; enzyme activity, inhibitor, absorbance): 1000 nM
CC(=O)N[C@@H](CCC(N)=O)C(=O)N[C@@H](Cc1ccccc1)C(=O)N[C@@H](CCCNC(=N)N)C(=O)c1nc2ccccc2n1C — activity vs control (TMPRSS2; enzyme activity, inhibitor; 1 nM): 89%
COc1ncccc1-c1cnn2ccc(N3CCN(C(=O)OC(C)C)CC3)nc12 — remaining binding (PIK3CB (Homo sapiens, UniProt P42338); binding, competition with immobilised ligand; 1 µM): 100%
O=C(Nc1cccc(CN2CCN(C(=O)c3cccc(Cl)c3)CC2)c1)c1cccs1 — IC50 (PFF0160c; enzyme activity, inhibitor, absorbance): 1870 nM
COc1cc(C(F)(F)F)c(OC)cc1C1CCCNC1 (centres unmarked) — Emax (Htr2c (Mus musculus, UniProt P34968); G protein activation, agonist, BRET): 76%
CS(=O)(=O)N[C@@H](CCC(=O)O)C(=O)N[C@@H](Cc1ccccc1)C(=O)N[C@@H](CCCNC(=N)N)C(=O)c1nc2ccccc2s1 — activity vs control (TMPRSS2; enzyme activity, inhibitor; 1 nM): 74%
C[C@@H](O)[C@@H]1CN([C@H](Cc2ccc3ccccc3c2)CN2CCC[C@H]2CN2CCNC[C@@H]2Cc2ccc3ccccc3c2)CCN1CCC12CC3CC(CC(C3)C1)C2 — remaining binding (OPRK1 (Cavia porcellus, UniProt P41144); ligand displacement, radioligand; 0.5 µM, pH 7.5): 109%
CC(=O)N[C@@H](CCC(N)=O)C(=O)N[C@@H](Cc1ccccc1)C(=O)NN(CCCNC(=N)N)C(=O)c1nc2ccccc2s1 — activity vs control (TMPRSS2; enzyme activity, inhibitor; 1 nM): 100%
CN(CC[C@H](N)CC(=O)N[C@H]1C=C[C@H](n2ccc(N)nc2=O)O[C@@H]1C(=O)O)C(=N)N — remaining activity (CTSL; enzyme activity, inhibitor; 100 µM): 160%
N=C(N)NCCC[C@H](N)C(=O)N[C@@H](CCC(N)=O)C(=O)N[C@@H](Cc1ccc(Cl)cc1)C(=O)N[C@H](CCCNC(=N)N)C(=O)c1nc2ccccc2s1 — activity vs control (TMPRSS2; enzyme activity, inhibitor; 1 nM): 95%
COc1cccc2c1cc([N+](=O)[O-])c1c(C(=O)O)cc3c(c12)OCO3 — remaining activity (CTSL; enzyme activity, inhibitor; 100 µM): 71.7%
CC(C)[C@H](NC(=O)[C@H](Cc1ccc(O)cc1)NC(=O)CCc1ccc(O)cc1)C(=O)N[C@@H](CCCNC(=N)N)C(=O)c1nc2ccccc2s1 — activity vs control (TMPRSS2; enzyme activity, inhibitor; 1 nM): 65%
[2H]c1c([2H])c([C@]2([2H])CCCN2C(=O)C(C)(C)Oc2ccc3cn[nH]c3c2)c([2H])c([2H])c1C([2H])([2H])[2H] — remaining binding (EPHA8 (Homo sapiens, UniProt P29322); binding, competition with immobilised ligand; 1 µM): 67%
CC[C@H](NC(=O)[C@H](CCc1ccccc1)NC(=O)CCc1ccccc1)C(=O)N[C@@H](CCCNC(=N)N)C(=O)c1nc2ccccc2s1 — activity vs control (TMPRSS2; enzyme activity, inhibitor; 1 nM): 65%
COC(=O)c1cc(-c2cccc(NC(=O)Nc3ccc(Cl)c(Cl)c3)c2)on1 — MIC (Klebsiella pneumoniae; microbial growth, broth dilution; BAA1705): > 64 µg/mL
N=C(N)NCCCCC(=O)N[C@@H](CCC(N)=O)C(=O)N[C@@H](Cc1ccc(CN)cc1)C(=O)N[C@H](CCCNC(=N)N)C(=O)c1nc2ccccc2s1 — activity vs control (TMPRSS2; enzyme activity, inhibitor; 1 nM): 44%
Nc1ncc(-c2nc(N3CCOCC3)nc(N3CCOCC3)n2)c(C(F)F)n1 — remaining binding (COQ8A (Homo sapiens, UniProt Q8NI60); binding, competition with immobilised ligand; 10 µM): 68%

Some of these lines once more:
N=C(N)NCCC[C@H](N)C(=O)N[C@@H](CCC(N)=O)C(=O)N[C@@H](Cc1ccc(Cl)cc1)C(=O)N[C@H](CCCNC(=N)N)C(=O)c1nc2ccccc2s1 — activity vs control (TMPRSS2; enzyme activity, inhibitor; 1 nM): 95%
COc1ncccc1-c1cnn2ccc(N3CCN(C(=O)OC(C)C)CC3)nc12 — remaining binding (PIK3CB (Homo sapiens, UniProt P42338); binding, competition with immobilised ligand; 1 µM): 100%
C#Cc1n[nH]c2c(-c3cn(C(C)c4ccccn4)c(=O)[nH]c3=O)cc(F)cc12 (centres unmarked) — inhibition (MST1R (Homo sapiens, UniProt Q04912); enzyme activity, inhibitor; 1 µM): 66.6%
N=C(N)NCCC[C@H](NC(=O)[C@H](Cc1ccccc1)NC(=O)[C@H](CCC(N)=O)NC(=O)OCc1ccccc1)C(=O)c1nccs1 — activity vs control (TMPRSS2; enzyme activity, inhibitor; 1 nM): 89%
